Published values gathered from unrelated publications.
A part holds a random share of what one study measured. Substitutions count along the parent as printed.

Sample 1
Target: ABI1, truncated, D143A, DHFR fusion (Arabidopsis thaliana)
Method: DHFR PCA, deep sequencing
Medium: yeast
Notes: methotrexate growth selection, single substitutions
Added: (+)-ABA 2500 µM
Baseline: wild-type fitted maximum
Direction: higher = stronger binding
Starting sequence: PYL1, truncated, DHFR fusion (Arabidopsis thaliana); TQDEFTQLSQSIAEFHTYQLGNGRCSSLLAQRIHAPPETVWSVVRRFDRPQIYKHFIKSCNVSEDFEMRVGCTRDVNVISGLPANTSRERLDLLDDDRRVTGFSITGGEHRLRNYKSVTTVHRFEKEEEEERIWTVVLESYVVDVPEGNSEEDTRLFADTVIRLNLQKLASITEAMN
Change	relative binding score
I162Y	-8.7%
D96C	88.5%
T86P	-0.681%
T101C	97.8%
L112D	-8.1%
V161A	66.8%
G102F	12.6%
D159E	94.5%
N114S	95.1%
R24C	98.1%
G108Y	59.8%
L91Q	64.1%
S42P	101%
A13E	103%

Sample 2
Target: BATF3, bZIP domain (human)
Method: DHFR protein complementation
Medium: yeast
Notes: single substitutions, most at no-binding floor
Baseline: wild-type JUN-FOS pair
Direction: higher = stronger binding
Starting sequence: JUN, bZIP domain (human); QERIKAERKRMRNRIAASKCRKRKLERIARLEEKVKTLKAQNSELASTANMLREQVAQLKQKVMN; partner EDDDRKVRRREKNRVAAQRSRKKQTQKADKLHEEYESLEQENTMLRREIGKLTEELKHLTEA
Change	binding fitness [natural log]
V56S	-0.141
E33V	0.0871
M51K	0.22
R53S	0.0343
Q41I	0.183
L52C	-0.301
Q55V	-0.0345
L45D	-0.355
A49F	0.0592
T37M	0.416
L31Y	0.177
A29V	0.006
T37A	0.264
T48W	0.0772

Sample 3
Target: CCNB1, cyclin fold, Cln2 fusion (human)
Method: yeast growth competition, sequencing
Medium: yeast
Notes: strong parent motif
Baseline: not given
Direction: higher = stronger binding
Starting sequence: PKMYT1 docking peptide (human); SFEPRNLLSLFED; partner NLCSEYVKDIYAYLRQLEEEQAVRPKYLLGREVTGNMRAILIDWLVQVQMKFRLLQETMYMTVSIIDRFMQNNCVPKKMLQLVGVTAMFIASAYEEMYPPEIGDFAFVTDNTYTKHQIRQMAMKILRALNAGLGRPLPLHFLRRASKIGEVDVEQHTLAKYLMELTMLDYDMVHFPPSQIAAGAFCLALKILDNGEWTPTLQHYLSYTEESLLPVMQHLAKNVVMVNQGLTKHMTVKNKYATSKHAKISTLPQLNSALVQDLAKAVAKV
Change	normalised enrichment score
STEPRNLLSLFED [F2T]	0.835
SFHPRNLLSLFED [E3H]	1.44
SFEPRNGLSLFED [L7G]	-0.218
SFEPRNLCSLFED [L8C]	0.278
SYEPRNLLSLFED [F2Y]	-0.204
SFEPRNLLSLFEG [D13G]	0.712
SFEPRNTLSLFED [L7T]	-0.295
SFEPPNLLSLFED [R5P]	-0.28
SFEPRNLLSLFEC [D13C]	0.98
SFEPRNWLSLFED [L7W]	0.404
SFEPYNLLSLFED [R5Y]	0.245
SFEPRNLLSLFTD [E12T]	0.326
PFEPRNLLSLFED [S1P]	1.19
SFEPRNLLSLVED [F11V]	0.46
SFEPRNYLSLFED [L7Y]	-0.127
IFEPRNLLSLFED [S1I]	1.77
SFEPRNLASLFED [L8A]	1.15
SFEPRNLLSLFEL [D13L]	1.19
SFEPRNLLSLMED [F11M]	0.332
SFEPRNLLSLIED [F11I]	0.777
VFEPRNLLSLFED [S1V]	1.68
SFQPRNLLSLFED [E3Q]	2.06
SFEERNLLSLFED [P4E]	-0.239
SFEPRNLQSLFED [L8Q]	0.0739
SFEPRNLFSLFED [L8F]	1.33

Sample 4
Target: Histone acetyltransferase KAT6A, winged helix 2, GST fusion (KAT6A, Homo sapiens, UniProt Q92794, residues 85-181)
Method: protein binding microarray
Form: double-stranded DNA, one strand shown
Medium: in vitro
Tested at: not given
Notes: 8-mer, flanks averaged, mean of 2 arrays, mostly near background
Baseline: not given
Direction: higher = stronger binding
Residues (chain): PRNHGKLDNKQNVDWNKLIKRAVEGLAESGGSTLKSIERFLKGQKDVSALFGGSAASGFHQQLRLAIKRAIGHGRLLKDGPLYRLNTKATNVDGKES
Strand	E-score
ACGCGAAA	0.0909
CTTTAAAA	0.139
TCGTGTCA	0.0224
ACGCGACT	-0.15
TCTGCGAA	0.0468
ACGAGTCC	-0.0724
CGCTTATA	-0.0586
TATTAACA	0.165
GGAATGCC	-0.0569
ATCCCAGG	0.0111
AGGAATTG	-0.22
AAAGCTAG	-0.0942
CGTAACCA	-0.216
AAATAGCT	-0.198
GTGGTACA	-0.0976
ACACGGCG	0.156
ATTATATC	-0.0829
CAAGGGGA	-0.0944
ACATCATC	-0.0378
ACTTATAA	0.108
GTGGGTGA	0.0572
AGCCGTAT	0.0159
AATTATGC	-0.0743
CCGCGAGC	0.222
CTATAAAC	0.0389

Sample 5
Target: Sal-like protein 4, full length isoform B (SALL4, Homo sapiens, UniProt Q9UJQ4-2, residues 1-616)
Method: universal PBM
Form: double-stranded DNA, one strand shown
Medium: in vitro
Tested at: not given
Notes: 8-mer, flanks averaged, mean of replicates
Direction: higher = stronger binding
Construct (chain): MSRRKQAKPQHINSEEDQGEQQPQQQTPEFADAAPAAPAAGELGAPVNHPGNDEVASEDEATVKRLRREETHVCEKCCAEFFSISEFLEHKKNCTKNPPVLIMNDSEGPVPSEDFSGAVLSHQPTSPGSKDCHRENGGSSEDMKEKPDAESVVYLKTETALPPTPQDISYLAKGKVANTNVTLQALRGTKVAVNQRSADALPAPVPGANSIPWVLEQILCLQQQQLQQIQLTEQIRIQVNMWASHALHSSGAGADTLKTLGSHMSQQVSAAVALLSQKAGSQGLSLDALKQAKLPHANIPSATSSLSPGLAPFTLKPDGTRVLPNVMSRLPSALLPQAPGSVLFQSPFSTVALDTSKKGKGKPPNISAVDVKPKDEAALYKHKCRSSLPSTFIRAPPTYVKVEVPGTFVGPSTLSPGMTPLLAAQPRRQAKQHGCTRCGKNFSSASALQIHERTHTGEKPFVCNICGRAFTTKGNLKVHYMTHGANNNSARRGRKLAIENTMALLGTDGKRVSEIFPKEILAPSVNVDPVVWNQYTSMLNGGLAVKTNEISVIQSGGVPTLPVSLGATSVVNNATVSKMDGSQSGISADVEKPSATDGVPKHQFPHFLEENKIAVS
Strand	E-score
AGTTAATA	0.345
GCATTGCA	-0.0548
GGGGCGTA	-0.181
ATTTGGTA	0.215
CATACCAG	0.0279
ACGCGTCG	-0.0758
CTATGTCA	0.217
GACAGTGC	-0.094
ACGATTAA	0.169
ATTTAAAT	0.369
AGAACAAT	0.303
CCGTACAC	-0.129
GGCCGCCC	-0.406
ATATTTTG	0.395
AGCGATGG	-0.284
GTCCGCAA	-0.143
TCTTACAA	0.0987
ATTCCTAC	0.0868
GGCGGGCA	-0.203

Sample 6
Target: RNA binding protein fox-1 homolog 2, RRM domain, GST-SBP tag (RBFOX2, Homo sapiens, UniProt O43251-10, residues 100-194)
Method: RNA Bind-n-Seq
Form: RNA
Medium: in vitro
Tested at: 365 nM
Notes: natural RNA segment, single round, ends assumed
Baseline: no-protein control
Direction: higher = stronger binding
Constant ends, left off below: GGGAGUUCUACAGUCCGACGAUC … UGGAAUUCUCGGGUGCCAA
Construct (chain): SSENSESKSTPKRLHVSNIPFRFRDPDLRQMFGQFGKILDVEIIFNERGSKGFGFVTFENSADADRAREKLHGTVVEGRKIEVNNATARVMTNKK
Strand	RBNS enrichment (R)
UUUUCUCCCCCUUUUCUUUGUUGUUUUCGUUGUUGUUGAUAACAAACUGGAAACCUGUCUCUCUCUGUUUGUGGACAAAUGAGAGGUUUCAGAUGCAGUGAGGAGCACUG	0.365
UUUAAGUCCGUUUAGAGAGCAAACCAUAUUGUGCCUCUUCAUCUUGACCCAGGCUCUUAUAGAUAGGUCCUAAACAUUGCUGUUCACUAGAUUAUCUUAACAAAUAAUAC	0.334
GACCACAAGAAGGAUGAUUCAACAGGUUUUCCUGAAGAAUUGAAAAACCAUUUUGCUGUCCCUUUUCCUUUUUUGAUGUUCUUUCACCCUUUUCUGUUUGCUAAGUGAGG	0.763
ACUUCCUGUGGUGACAGACUCUUCCAUUUCAGACUGGUUUUAACUUAUCCCAGCUUUACAAAAACUCUUCAUGUGAAUCUUAACUUGCAAAAGGAGAAAGAUAAAAUACA	0.369
CUGCCUUCUGCGCCUCAGUCCCCCGUGCAUCCCUGGGCCUGGGUAUCACAUGCUCUCCAGGAAAGGGACGGAAUCAAUCCUGUGACCGAUGGGCUCGCAAGGAUGGGUGC	0.521
AAAAGUAAUUUAUUCUGUCAAGAAAUUAAAAAUAGGCUUUGUGUAUGGUUAAACUGUAAAUCUUAUGUUUACAAAAAUACUGUAAUCUUCAGGAAAUCACUGUAUUAGGA	0.41
GACCUUUCAUCUUUCACGAACUUGAUCCUGUUAGCAGGUGGUAAUACCAUGGGUGCUGUGACACUAACAGUCAUUGAGAGGUGGGAGGAAGUCCCUUUUCCUUGGACUGG	0.425
GUAAGUUACCUAGCUCUACCUGACUGUGGAUAAAAGACAGUGCUCUACCCACCUGGUGGACCCAGGGACUGAAGCAAUGGCACAGAGACCAUGACAGACUGUGCUCCUAU	0.316
CCACACUCAUCUGACACACGUACACUUAGACCUGUCUCUUCUUUUGCUUUUCAAUUUUGGAAAGGGAUCUCUGUCCAGGUCAGCCCCUCUUGAAGGGCUACCUUUUGUUU	0.406
GAGGGGCUCGGUGACCAAGGUAAACCACACGCGCAAACCGAGGCAGUCAUCUACAAAUAACCCAUCAUCUAUUUAAUGUUUUUAACCACCUACUUUUGUAUGGAGUUAAA	0.231
GCCUUUACGUUCAUCACCUGCUAGAACCUCUCGUAGUCCAUCACCAUUUCUUGGCAUUGGAAUUCUACUGGAAAAAAAUACAAAAAGCAAAACAAAACCCUCAGCACUGU	0.554
GUAAUCUCAUCAGGUUGGGACAUUAAUCUUUUCAACUCCUUGUAAGAUUUCCCAGUUUGGUUUCUCUACAUGUCCUGCAGCUGCCCCACUUCUCCUUUACGCUGUGUAGA	0.314

Single results of other studies
Molecule	target	assay	system	conditions	how to read	measurement	result
PhoQ, residues 284 288 289 292 302 303 ALVSVA	PhoP, residues 12 14 15 18 19 NMSSL (Escherichia coli, UniProt P23836)	Sort-seq, refers to: YFP reporter	E. coli	PhoQ-PhoP variant library, added: 10 µM Mg2+	baseline: high Mg2+ state, higher = stronger signaling	fold induction	2.97
